Measurements gathered from unrelated publications.
± gives the spread as reported.

Compound | assay | system | conditions | half-life
CSCC[C@H](NC(=O)[C@H](Cc1ccccc1)NC(=O)CNC(=O)[C@@H](C)NC(=O)[C@@H](N)Cc1ccc(O)cc1)C(=O)N1CCC[C@H]1C(=O)N[C@@H](CC(C)C)C(=O)N[C@@H](Cc1c[nH]c2ccccc12)C(=O)NCc1cc(C(F)(F)F)cc(C(F)(F)F)c1 |  | rat plasma | 50 µg/mL, 37 °C | 288 min
Cn1c(=O)c2cc(C(=O)NCCCN3CCCCCC3)sc2c2ccccc21 |  | human liver microsomes |  | > 159 min
C#Cc1c(F)ccc2cc(O)cc(-c3ncc4c(N5CC6CCC(C5)N6C(=O)OCCCCC)nc(OC[C@@]56CCCN5C[C@H](F)C6)nc4c3F)c12 | refers to: prodrug disappearance | mouse whole blood | 60 min | stable
N=C(N)NCCC[C@@H]1NC(=O)[C@H](Cc2ccc(O)cc2)NC(=O)[C@H](CO)N2CC[C@@H](C2=O)N2CC[C@H](NC(=O)[C@@H]3CCCN3C(=O)[C@H](Cc3ccc(O)cc3)NC1=O)C2=O | HPLC | human serum |  | > 4320 min
COc1ccc(-c2cnc3[nH]cc(C#Cc4cccnc4)c3c2)cc1OC |  | plasma |  | > 240 min
C=CCc1ccc(OC(=O)COC(=O)Cn2cnc3c2c(=O)n(C)c(=O)n3C)c(OC)c1 |  | 0.1 M HCl | 75 µM, pH 1.4, 37 °C, simulated gastric conditions | 2100 min
CC(COC(=O)c1ccccc1)OC(=O)C(N)Cc1ccccc1 (mixture of isomers) |  | rat intestinal lumenal perfusate | 37 °C | > 120 min
CC[C@H](C)[C@H](NC(=O)[C@@H](NC(=O)[C@H](CC(N)=O)NC(=O)[C@H](CCC(N)=O)NC(=O)[C@@H]1CCCN1C(=O)[C@@H](NC(=O)[C@H](Cc1ccc(O)cc1)NC(=O)CNC(=O)[C@H](Cc1ccc(O)cc1)NC(=O)[C@H](Cc1c[nH]c2ccccc12)NC(=O)[C@H](Cc1c[nH]cn1)NC(=O)[C@H](Cc1ccc(O)cc1)NC(=O)CCOCCOCCOCCOCCOCCOCCC(=O)NCCCN(CCCNC(=O)CCOCCOCCOCCOCCOCCOCCC(=O)N[C@@H](Cc1ccc(O)cc1)C(=O)N[C@@H](Cc1c[nH]cn1)C(=O)N[C@@H](Cc1c[nH]c2ccccc12)C(=O)N[C@@H](Cc1ccc(O)cc1)C(=O)NCC(=O)N[C@@H](Cc1ccc(O)cc1)C(=O)N[C@H](C(=O)N1CCC[C@H]1C(=O)N[C@@H](CCC(N)=O)C(=O)N[C@@H](CC(N)=O)C(=O)N[C@H](C(=O)N[C@H](C(=O)O)[C@@H](C)CC)C(C)C)[C@@H](C)O)CC(=O)NCCCN(CCCNC(=O)CN(CCCNC(=O)CCOCCOCCOCCOCCOCCOCCC(=O)N[C@@H](Cc1ccc(O)cc1)C(=O)N[C@@H](Cc1c[nH]cn1)C(=O)N[C@@H](Cc1c[nH]c2ccccc12)C(=O)N[C@@H](Cc1ccc(O)cc1)C(=O)NCC(=O)N[C@@H](Cc1ccc(O)cc1)C(=O)N[C@H](C(=O)N1CCC[C@H]1C(=O)N[C@@H](CCC(N)=O)C(=O)N[C@@H](CC(N)=O)C(=O)N[C@H](C(=O)N[C@H](C(=O)O)[C@@H](C)CC)C(C)C)[C@@H](C)O)CCCNC(=O)CCOCCOCCOCCOCCOCCOCCC(=O)N[C@@H](Cc1ccc(O)cc1)C(=O)N[C@@H](Cc1c[nH]cn1)C(=O)N[C@@H](Cc1c[nH]c2ccccc12)C(=O)N[C@@H](Cc1ccc(O)cc1)C(=O)NCC(=O)N[C@@H](Cc1ccc(O)cc1)C(=O)N[C@H](C(=O)N1CCC[C@H]1C(=O)N[C@@H](CCC(N)=O)C(=O)N[C@@H](CC(N)=O)C(=O)N[C@H](C(=O)N[C@H](C(=O)O)[C@@H](C)CC)C(C)C)[C@@H](C)O)CC(=O)NCCOCCOCCOCCOCCC(=O)N[C@@H](CCCCNC(=O)CC[C@H](C(=O)O)N1CCN(CC(=O)O)CCN(CC(=O)O)CC1)C(N)=O)[C@@H](C)O)C(C)C)C(=O)O [gallium-68 labelled] | radio-HPLC | human serum | 37 °C | 62 min
N#Cc1ccc(NC(=O)c2cccnc2)cc1Cl | chemical stability | buffer | 5 µM, pH 10.0, 37 °C | 39.2 ± 8.7 min
COCn1cc(-c2cc(-c3cnn(C(F)F)c3)cc([C@@H](C)NC(=O)c3cc(OCCN(C)C)ccc3C)c2)cn1 |  | mouse liver microsomes |  | 136 min
CC[C@H](C)[C@@H]1NC(=O)CNC(=O)[C@@H]2CSSC[C@@H]3NC(=O)[C@H](Cc4ccc(O)cc4)NC(=O)[C@@H]4CSSC[C@H](NC(=O)[C@H](CSSC[C@H](NC(=O)[C@H](Cc5c[nH]cn5)NC(=O)CNC(=O)[C@H](CCCCN)NC(=O)[C@H](CCCNC(=N)N)NC3=O)C(=O)N[C@@H](CCCCN)C(=O)N[C@@H](CCCNC(=N)N)C(=O)NCC(=O)N[C@@H](CCC(=O)O)C(=O)N[C@@H](CCCNC(=N)N)C(=O)N[C@@H](C(C)C)C(=O)N[C@@H](CCCNC(=N)N)C(=O)NCC(=O)N[C@@H]([C@@H](C)O)C(=O)N2)NC(=O)[C@H](Cc2ccc(O)cc2)NC(=O)[C@H](CC(C)C)NC(=O)[C@H](Cc2ccccc2)NC(=O)[C@H](CCCNC(=N)N)NC1=O)C(=O)N1CCC[C@H]1C(=O)N[C@@H](CCCNC(=N)N)C(=O)N[C@@H](CCCNC(=N)N)C(=O)NCC(=O)N[C@@H](CC(C)C)C(=O)N[C@@H](CC(C)C)C(=O)N4 |  | 100% human serum | 27 µM, 37 °C, heat-inactivated serum | > 2880 min
CC(C)(C)C(=O)OCOP(=O)(OCOC(=O)C(C)(C)C)C1CCCN(O)C1=O (centres unmarked) |  | mouse plasma | ex vivo | ~0.5 min
CC(C)(CN)CNC(=O)O[C@H]1CCCC2(C1)OOC1(O2)C2CC3CC(C2)CC1C3 (some centres unmarked) |  | human liver microsomes |  | 64.8 min
CC[C@H](C)[C@@H]1NC(=O)[C@H](CC(N)=O)NC(=O)[C@@H]2CCCN2C(=O)[C@@H](NC(=O)[C@H](CC(N)=O)NC(=O)[C@@H](N)CCC(N)=O)COC(=O)[C@H](CCSC)NC(=O)[C@H](Cc2c[nH]c3ccccc23)NC(=O)[C@H](CCC(N)=O)NC(=O)CNC(=O)[C@H](Cc2ccccc2)NC1=O |  | PBS with chymotrypsin | 0.28 mM, pH 7.2, 37 °C, with: chymotrypsin 50 nM | ~240 min
Cc1ccc2nc(C)c(C(=O)NCc3ccc(C(F)(F)F)cc3)n2c1 |  | dog liver microsomes |  | 18 min
CC[C@H](C)[C@@H]1NC(=O)[C@H](Cc2ccc(O)cc2)NC(=O)[C@@H](N)CSCSC[C@@H](C(=O)N2CCC[C@H]2C(=O)N[C@@H](CC(C)C)C(=O)NCC(N)=O)NC(=O)[C@H](CC(N)=O)NC(=O)[C@H](CCC(N)=O)NC1=O |  | phosphate buffer | 0.1 mg/mL, pH 7.0, 40 °C | 49000 ± 1730 min
CC(COC(=O)c1ccccc1)OC(=O)C(N)C(C)C (mixture of isomers) |  | rat intestinal homogenate | 37 °C | < 60 min
Cc1cc(O)cc(C)c1C[C@H](N)C(=O)N[C@H](C)C(=O)NCC(=O)N[C@@H](Cc1ccc(F)cc1)C(=O)N1CCC[C@H]1C(=O)N[C@@H](CC(C)C)C(=O)N[C@@H](Cc1c[nH]c2ccccc12)C(=O)NCc1cc(C(F)(F)F)cc(C(F)(F)F)c1 |  | rat plasma | 50 µg/mL, 37 °C | ~360 min
CC(C)(C)NC(=O)[C@@H]1C[C@@H]2CCCC[C@@H]2CN1C[C@@H](OC(=O)CCC(=O)OC[C@H](O)[C@H]1OC(=O)C(O)=C1O)[C@H](Cc1ccccc1)NC(=O)[C@H](CC(N)=O)NC(=O)c1ccc2ccccc2n1 |  | Caco-2 cells |  | 344 ± 44.4 min
COc1ccc(CCNc2cc(-c3ccccc3)nc3ncnn23)cc1 |  | mouse liver microsomes |  | 7.3 min
N=C(N)NCCC[C@H](NC(=O)CN)C(=O)N[C@@H](CCCCN)C(=O)N[C@@H](CCCCN)C(=O)N[C@@H](CCCNC(=N)N)C(=O)N[C@@H](CCCNC(=N)N)C(=O)N[C@@H](CCC(N)=O)C(=O)N1Cc2ccccc2C[C@H]1C(=O)N1[C@@H](C(=O)N[C@@H](CCCNC(=N)N)C(=O)N2CCC[C@H]2C(=O)N[C@@H](CO)C(=O)O)C[C@H]2CCCC[C@H]21 |  | human plasma | 500 µM, 37 °C | 136 min
Cc1cccc(-c2nc(Nc3ccncn3)c3c(C)csc3n2)n1 |  | human liver microsomes |  | 11.5 min
CC(=O)N[C@@H](Cc1ccc(O)cc1)C(=O)N[C@@H](CC(=O)O)C(=O)N[C@@H](C)C(=O)N[C@@H](Cc1ccccc1)C(=O)N[C@@H](Cc1ccc(O)cc1)C(=O)N[C@@H](C)C(=O)N[C@@H](Cc1ccc(O)cc1)C(=O)N[C@H](C(=O)N[C@H](C(=O)N[C@@H](Cc1ccccc1)C(=O)N[C@@H](Cc1c[nH]cn1)C(=O)N[C@H](C(=O)N[C@@H](C)C(=O)N[C@H](C(N)=O)[C@@H](C)O)C(C)C)[C@@H](C)O)C(C)C | LC-MS | human serum | 10 µM, 37 °C | < 10 min
COc1ccc2nc(C)cc(OCC(=O)Nc3ccccc3OC)c2c1 |  | mouse liver microsomes |  | < 3 min
CCC(CC)OC1C=C(C(=O)OC(C)OC(=O)C(N)C(C)CC)CC(NC(=N)N)C1NC(C)=O (mixture of isomers) |  | Caco-2 cell homogenate | pH 7.4, 37 °C, 500 µg/mL protein | 26.4 ± 3.1 min
[CH3][Ti+2][O]C(=O)c1ccc([S][Au][PH](c2ccccc2)(c2ccccc2)c2ccccc2)cc1.c1cc[cH-]c1.c1cc[cH-]c1 | NMR | DMSO-d6 |  | 480 min
CCn1ccc(-c2cc(-c3cnn(C)c3)cc([C@@H](C)NC(=O)c3cc(OCCN(C)C)ccc3C)c2)n1 |  | mouse liver microsomes |  | 82.4 min
O=C(NC12CC3CC(CC(C3)C1)C2)c1cc2cc(Cl)ccc2[nH]1 |  | mouse liver microsomes |  | 21.9 min
CCCCCc1cc(OC(=O)C(NC(=O)CCC(=O)O)C(C)C)c2c(c1)OC(C)(C)C1CCC(C)=CC21 (centres unmarked) |  | Cremophor RH 40 in isotonic phosphate buffer | pH 7.3, 40 °C | 85000 min

For quick reference, copied from above:
Compound | assay | system | conditions | half-life
Cn1c(=O)c2cc(C(=O)NCCCN3CCCCCC3)sc2c2ccccc21 |  | human liver microsomes |  | > 159 min
CC[C@H](C)[C@@H]1NC(=O)CNC(=O)[C@@H]2CSSC[C@@H]3NC(=O)[C@H](Cc4ccc(O)cc4)NC(=O)[C@@H]4CSSC[C@H](NC(=O)[C@H](CSSC[C@H](NC(=O)[C@H](Cc5c[nH]cn5)NC(=O)CNC(=O)[C@H](CCCCN)NC(=O)[C@H](CCCNC(=N)N)NC3=O)C(=O)N[C@@H](CCCCN)C(=O)N[C@@H](CCCNC(=N)N)C(=O)NCC(=O)N[C@@H](CCC(=O)O)C(=O)N[C@@H](CCCNC(=N)N)C(=O)N[C@@H](C(C)C)C(=O)N[C@@H](CCCNC(=N)N)C(=O)NCC(=O)N[C@@H]([C@@H](C)O)C(=O)N2)NC(=O)[C@H](Cc2ccc(O)cc2)NC(=O)[C@H](CC(C)C)NC(=O)[C@H](Cc2ccccc2)NC(=O)[C@H](CCCNC(=N)N)NC1=O)C(=O)N1CCC[C@H]1C(=O)N[C@@H](CCCNC(=N)N)C(=O)N[C@@H](CCCNC(=N)N)C(=O)NCC(=O)N[C@@H](CC(C)C)C(=O)N[C@@H](CC(C)C)C(=O)N4 |  | 100% human serum | 27 µM, 37 °C, heat-inactivated serum | > 2880 min
O=C(NC12CC3CC(CC(C3)C1)C2)c1cc2cc(Cl)ccc2[nH]1 |  | mouse liver microsomes |  | 21.9 min
